Measurements from different studies.
Compare with care: the assays were run in different laboratories. ± marks the error that the study gave.

Structure (SMILES) = COc1ccc([C@@H]2CC(=O)c3c(O)cc(O[C@@H]4O[C@H](CO[C@@H]5O[C@@H](C)[C@H](O)[C@@H](O)[C@H]5O)[C@@H](O)[C@H](O)[C@H]4O)cc3O2)cc1O; cell line = A549; test = trypan blue exclusion; setting = 100 µg/mL, 72 h; quantity = cell count; value = 17500 ± 618
Structure (SMILES) = CC1[C@H](O)CC(=C/C=C2\CCC[C@]3(C)[C@@H]([C@H](C)CCCCO)CC[C@@H]23)C[C@H]1O (stereo partly shown); cell line = rat osteosarcoma cells; test = reporter gene, luciferase, refers to: CYP24A1 (24-hydroxylase) promoter; how to read = relative to: compound over 1α,25-dihydroxyvitamin D3; quantity = EC50 ratio; value = 30
Structure (SMILES) = COc1cc(CNC(=O)C[C@H](C)CCC=C(C)C)ccc1O; cell line = HOP-92; test = SRB; setting = 10 µM, 48 h; quantity = growth percent; value = 83.5%
Structure (SMILES) = Cc1ccc(CN2C(=O)/C(=N\c3ccc(Cl)cc3Br)c3ccccc32)cc1; cell line = A-375; setting = 2.7 µM, 48 h; quantity = S-phase cells; value = 39.8%
Structure (SMILES) = CC(C)(C)c1nc(-c2cccc(NS(=O)(=O)c3c(F)cccc3F)c2F)c(-c2ccnc(N)n2)s1.Cc1[nH]c2ccccc2c1CCNCc1ccc(/C=C/C(=O)NO)cc1; cell line = C13; test = flow cytometry; setting = concentration not given, 48 h, concentration about IC50; quantity = cells in G0/G1 phase; value = 5.93%
Structure (SMILES) = COc1cc(CNC(=O)C[C@H](C)CCC=C(C)C)ccc1OCc1cn(-c2ccccc2F)nn1; cell line = CAKI-1; test = SRB; setting = 10 µM, 48 h; quantity = growth percent; value = 55.1%
Structure (SMILES) = CCC(=C(c1ccc(Cl)cc1)c1ccc(OCCCN(C)C)cc1)c1ccc(OC)cc1; cell line = Ishikawa; test = estrogenic activity, agonist; setting = 10 nM, 72 h, unit not given; how to read = relative to: DMSO; quantity = alkaline phosphatase activity; value = 1.47 ± 0.45
Structure (SMILES) = COc1ccc(Cl)cc1C(=O)NCCc1ccc(S(=O)(=O)NC(=O)NC2CCCCC2)cc1; cell line = hiPSC cardiac tissues 3D; test = active force; setting = 15 min per concentration, paced at 1 Hz serum-free; quantity = minimum effective concentration; value = > 100 µM
Structure (SMILES) = COc1cc(CNC(=O)C[C@H](C)CCC=C(C)C)ccc1OCc1cn(-c2cccc(C(F)(F)F)c2)nn1; cell line = SK-MEL-5 melanoma cells; test = SRB; setting = 10 µM, 48 h; quantity = growth percent; value = 78.8%
Structure (SMILES) = CCc1nnc(NS(=O)(=O)c2ccc(NC(=S)NC(=O)/C=C/c3ccc(F)cc3)cc2)s1; cell line = SK-N-AS; setting = 10 µM, 7 days; quantity = neurosphere size; value = decreased
Structure (SMILES) = CC(=O)OC[C@H]1O[C@@H](Sc2sc(C(=O)c3ccc(C)cc3)c(N)c2-c2nc3ccccc3s2)[C@H](OC(C)=O)[C@@H](OC(C)=O)[C@@H]1OC(C)=O; cell line = SK-MEL-5; test = SRB; setting = 10 µM, 48 h; how to read = relative to: untreated; quantity = growth; value = 45.5%
Structure (SMILES) = COc1cc(CNC(=O)C[C@H](C)CCC=C(C)C)ccc1OCc1cn(-c2cccc(Cl)c2)nn1; cell line = HOP-92; test = SRB; setting = 10 µM, 48 h; quantity = growth percent; value = 71.9%
Structure (SMILES) = COc1cc(CN2CCN(c3ccccc3F)CC2)c2cc3[n+](cc2c1O)CCc1cc2c(cc1-3)OCO2; cell line = Ca-Ski and MDCK; test = SRB; setting = 48 h; how to read = relative to: CC50 MDCK over IC50 Ca-Ski; quantity = therapeutic index; value = 27.3
Structure (SMILES) = COc1cc(CNC(=O)C[C@H](C)CCC=C(C)C)ccc1OCc1cn(-c2ccccc2)nn1; cell line = CAKI-1; test = SRB; setting = 10 µM, 48 h; quantity = growth percent; value = 93.2%
Structure (SMILES) = N=C(N/N=C/c1cc2ccccc2c2ccccc12)N/N=C/c1cc2ccccc2c2ccccc12; cell line = PANC-1; test = crystal violet; setting = 72 h; how to read = relative to: IC50 hTERT-HPNE over IC50 PANC-1; quantity = selectivity ratio; value = 0.9
Structure (SMILES) = CC(=O)OC[C@H]1O[C@@H](Sc2sc(C(=O)c3ccc(Br)cc3)c(N)c2-c2nc3ccccc3s2)[C@H](OC(C)=O)[C@@H](OC(C)=O)[C@H]1OC(C)=O; cell line = HOP-92; test = SRB; setting = 10 µM, 48 h; how to read = relative to: untreated; quantity = growth; value = 98.3%
Structure (SMILES) = Cc1c(C(=O)Nc2ccn(C)n2)ncn1Cc1cccc(C(F)(F)F)c1; cell line = M17D expressing αS E46K; test = western blot; setting = 10 µM, 48 h, pS129 to total αS ratio; quantity = αS Ser129 phosphorylation; value = decreased
Structure (SMILES) = CCCCCCCCC=CCCCCCCCC(=O)OCC1OC(n2ccc(N)nc2=O)C(F)(F)C1O (stereo not shown); cell line = L1210/L5 (murine leukaemia); test = cell growth, cell counting; setting = 72 h; how to read = relative to: compound over gemcitabine, higher = less active; quantity = IC50 ratio; value = 1.7 fold
Structure (SMILES) = O=Cc1c(O)ccc2ccccc12; cell line = HUVEC; test = RNA sequencing, refers to: ZNF367; setting = 75 µM, 24 h; how to read = relative to: DMSO; quantity = log2 fold change; value = -3.52
